Published values collected from several papers.
A part holds a random share of what one study measured.

Sample 1
Target: Transcription factor Sp1 (SP1, Homo sapiens, UniProt P08047, residues 1-785, full length assumed)
UniProt P08047, sequence (whole entry, looked up): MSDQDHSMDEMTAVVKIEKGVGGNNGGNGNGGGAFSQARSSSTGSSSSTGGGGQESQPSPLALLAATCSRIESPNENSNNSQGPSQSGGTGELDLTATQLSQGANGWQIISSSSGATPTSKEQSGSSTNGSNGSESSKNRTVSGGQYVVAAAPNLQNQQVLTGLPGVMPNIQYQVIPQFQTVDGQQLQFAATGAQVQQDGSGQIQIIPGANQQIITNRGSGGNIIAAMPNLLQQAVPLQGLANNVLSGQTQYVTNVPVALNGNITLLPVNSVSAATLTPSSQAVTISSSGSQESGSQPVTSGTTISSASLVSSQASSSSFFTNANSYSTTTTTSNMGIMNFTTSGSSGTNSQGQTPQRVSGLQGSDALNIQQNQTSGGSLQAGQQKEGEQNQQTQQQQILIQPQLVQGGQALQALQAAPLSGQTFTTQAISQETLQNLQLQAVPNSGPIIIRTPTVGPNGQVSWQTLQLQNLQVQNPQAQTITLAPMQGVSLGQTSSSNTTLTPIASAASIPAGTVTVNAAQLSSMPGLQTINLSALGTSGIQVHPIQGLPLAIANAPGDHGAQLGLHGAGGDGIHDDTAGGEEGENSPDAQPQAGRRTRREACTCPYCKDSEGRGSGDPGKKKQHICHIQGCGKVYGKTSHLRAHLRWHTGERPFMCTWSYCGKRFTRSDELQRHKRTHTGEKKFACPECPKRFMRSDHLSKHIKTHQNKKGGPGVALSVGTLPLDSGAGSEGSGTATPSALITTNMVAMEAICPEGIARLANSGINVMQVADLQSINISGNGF
Technique: protein-binding microarray
Molecule type: double-stranded DNA, one strand shown
Medium: in vitro
Tested at: not given
Setting: k-mer, scored over probes, only values ≥0.25
Direction: higher = stronger binding
Oligonucleotide | E-score
CGCCCACA | 0.44
CACTCCCA | 0.362
CCCCGCCA | 0.459
CCCCACCC | 0.481
CAACGCCC | 0.331
AGAGGGCG | 0.293
CGCCCCCG | 0.341
CGTTGTAG | 0.254
GGGTAATA | 0.273
TCCCCACA | 0.311
GTAACACA | 0.305
ACCCCAAT | 0.287
GGCGGGAC | 0.374
AAGTGGGA | 0.295

Sample 2
Target: Fragile X messenger ribonucleoprotein 1, C-terminal low-complexity region (Fmr1, Mus musculus, UniProt P35922)
Technique: RNA Bind-n-Seq
Molecule type: RNA
Medium: in vitro
Tested at: 200 nM
Setting: whole 134-nt RNA, ends assumed
Added: 150 mM KCl
Relative to: input library
Direction: higher = stronger binding
Shared flanks, not repeated: GGGAGUUCUACAGUCCGACGAUC … UGGAAUUCUCGGGUGUCAAGG
Oligonucleotide | log2 enrichment
UGGCCCUGGUGGCAUGCGGGGAGGAAGAGGUGGCCUCAUGGAUCGUGGUGGUCCCGGUGGAAUGUUCAGAGGUGGCCGCGGUGGAGACAG | -0.0463
GUCCUGUGCUACACAUCGUAUGUACCGAAUCGGUUUUUGGGUUUUUGGGGUUUUUGGGAAAGUAUUAUGUUACGCCGUUCGGAUCUGCAC | -0.216
CACAGACAACACGCACCCACACAGACACAGAGGGAAGGGGUUGGGAUGGGGACAGGGUGCACAGCAGGGCGGGGUAGGACCCCAGCAAAU | 1.14
GCAGGAAGUAAAAACAAAUGGAAAUGCUUCGGAUAGUGGCAGGGGUGGGCGUUGCUAAGGAAAGGGUGGGAUGGGAGUGGGUAAAGAGUU | -0.062
CCUGUGCUACACAUCGUAUGUACCGAAUCGGGGAAAAAAAGGGGUUUUUUUGGGGAGGGGAAAGUAUUAUGUUACGCCGUUCGGAUCUGC | 0.47
AGUCCUGUGCUACACAUCGUAUGUACCGAAUCGGUUUUUUUGGUUUUUGGUUUUUGGAAAGUAUUAUGUUACGCCGUUCGGAUCUGCACU | -0.938
GUCCUGUGCUACACAUCGUAUGUACCGAAUCAAAUUUUUAAAUUUUUAAACCCCCAAAAAAGUAUUAUGUUACGCCGUUCGGAUCUGCAC | 0.177

Sample 3
Target: Histone acetyltransferase KAT6A, both winged helices, GST fusion (KAT6A, Homo sapiens, UniProt Q92794, residues 1-181)
Technique: protein binding microarray
Molecule type: double-stranded DNA, one strand shown
Medium: in vitro
Tested at: not given
Setting: 8-mer, flanks averaged, mean of 2 arrays, mostly near background
Relative to: not given
Direction: higher = stronger binding
Target sequence (chain): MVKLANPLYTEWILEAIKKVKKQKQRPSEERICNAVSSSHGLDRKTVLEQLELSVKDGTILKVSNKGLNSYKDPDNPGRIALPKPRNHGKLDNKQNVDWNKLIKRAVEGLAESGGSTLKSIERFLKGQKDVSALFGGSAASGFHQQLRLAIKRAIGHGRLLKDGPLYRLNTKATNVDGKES
Oligonucleotide | E-score
TGCAACCA | -0.181
AGGATATC | -0.159
ATCTTACC | -0.0543
ATGGTCTA | -0.132
AATCCGGT | 0.0604
ACTAGTAG | 0.00872
AACAAACC | -0.0104
CTGAACGA | -0.0957
CGAAGTGA | -0.0697
ACCGATGC | 0.13
ATATCCAG | -0.0444
ACTTTTAG | -0.0156
CGTCAACG | 0.136
AGCTGCGC | 0.183
TCTAAAGA | -0.0541
ACCCTTCT | -0.136
CACATGGA | -0.167
TATAAACA | -0.0569
AACGGACT | 0.111
CAGACTCC | -0.0782
CATACCTA | -0.171
CCCCTTGC | -0.219
ACGACTGA | -0.196
ATGCTCCA | -0.108
ATCCCGAA | -0.0209

Sample 4
Target: Interferon regulatory factor 7, full length, phosphomimetic (IRF7, Homo sapiens, UniProt Q92985, residues 1-503, S101K/S471D/S472D/S475D/S476D/S477D/S483D/S484D/S487D)
Technique: protein-binding microarray
Molecule type: double-stranded DNA, one strand shown
Medium: in vitro
Tested at: 250 nM
Setting: 60-bp whole probe
Added: salmon DNA 0.4 mg/ml
Relative to: random background probes
Direction: higher = stronger binding
Shared flanks, not repeated: GCCTAGCAC … GTCTTGATTCGCTTGACGCTGCTG
Construct (chain): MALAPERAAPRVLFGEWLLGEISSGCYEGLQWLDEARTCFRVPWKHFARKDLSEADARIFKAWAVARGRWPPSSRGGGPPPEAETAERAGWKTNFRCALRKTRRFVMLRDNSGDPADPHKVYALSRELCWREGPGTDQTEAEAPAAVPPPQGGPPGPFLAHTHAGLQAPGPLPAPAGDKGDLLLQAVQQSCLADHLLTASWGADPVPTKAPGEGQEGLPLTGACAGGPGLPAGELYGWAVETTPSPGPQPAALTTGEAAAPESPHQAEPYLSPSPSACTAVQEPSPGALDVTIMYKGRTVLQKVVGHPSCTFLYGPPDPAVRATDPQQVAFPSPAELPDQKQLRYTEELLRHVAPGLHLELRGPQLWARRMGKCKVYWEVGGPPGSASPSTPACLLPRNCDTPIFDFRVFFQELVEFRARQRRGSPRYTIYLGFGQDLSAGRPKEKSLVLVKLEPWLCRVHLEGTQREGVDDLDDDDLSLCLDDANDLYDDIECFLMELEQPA
Oligonucleotide | log fluorescence [z-score]
TCAAACATCCCAATGGCACTGTGCTAG | -0.382
TTAGGACTGCTTTCCCTTTAGTGCTAG | 1.87
GACGGACTGGACTTTCGCGACGTGCTA | -0.911
GACGGTATCAGTTTCGGGACGTGCTAG | 3.3
GACGGTTTCGGGAATGGGGACGTGCTA | 3.39
GACGGCTTCCTTATCCTGACGTGCTAG | 0.0219
GACGCTTTCGGTCTCGGGACGTGCTAG | 1.5
CAAGGAACTCAGAGATTTAAGTGCTAG | -0.309
TCAGAACTGGGGACTGGATTAGTGCTA | -0.438
TTAGGACTGGGTATCTGTTAGTGCTAG | -0.215
TAGTTGCAAGCCATGGGTGGGTGCTAG | -0.0878
TTAGGTATCCTACTGATTTAGTGCTAG | -0.0863
TCACCTATGTCATTTACACTGTGCTAG | 0.143
GACGGTTTCCTACTGCAGACGTGCTAG | 1.67

Sample 5
Target: RING finger protein unkempt homolog, zinc fingers 1-6, SBP tag (UNK, Homo sapiens, UniProt Q9C0B0, residues 30-357)
UniProt Q9C0B0, sequence (30-357, looked up): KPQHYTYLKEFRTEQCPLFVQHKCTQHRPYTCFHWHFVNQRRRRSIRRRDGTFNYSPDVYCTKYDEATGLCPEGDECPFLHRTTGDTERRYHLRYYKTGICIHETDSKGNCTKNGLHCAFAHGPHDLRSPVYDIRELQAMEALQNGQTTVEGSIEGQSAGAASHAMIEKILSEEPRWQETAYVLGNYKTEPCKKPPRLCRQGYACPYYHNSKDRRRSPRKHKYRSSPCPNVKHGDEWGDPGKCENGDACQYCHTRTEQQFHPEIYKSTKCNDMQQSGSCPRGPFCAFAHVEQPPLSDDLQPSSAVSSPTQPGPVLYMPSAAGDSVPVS
Technique: RNA Bind-n-Seq
Molecule type: RNA
Medium: in vitro
Tested at: 100 nM
Setting: RNA with constant flanks, vertebrate orthologous sites, ends assumed
Relative to: input RNA pool
Direction: higher = stronger binding
Shared flanks, not repeated: GGGAGUUCUACAGUCCGACGAUC … CAACAGAGGAUUGAGCAUCA
Oligonucleotide | bound/input enrichment
AGUCCCCUGGGCGGACGGAUUUUUUUUUUUUUAGUGUCUUGAAACUUAAAACUGUGCUUGUAGGAGACUGUAACCUUUUUGUCUUUUUUUUAAACAAAUAACCUCCACCUCCAGUGGCUG | 0.722 ratio
AUUUGGAAUGUUAAUAAAUUGCUCUGAGAUUCCUCAAGUCCAUUUUGUAAGAUCAGACCAUAGGUGGGUGUUGUUUCUUUUAAGUUUGUGUACUGUGUCCAAUGUUACAUUUUUAAAAGU | 0.613 ratio
CCAGUUUUCCAUAUAGGAUUGGCCUCAAAUCUAUAGGAUUUUUGACAAAUGUACCAUAUCUAGUUGUGUUGUUUCACUAUUUUUUUUAUUAGCCUGUAAAUAAAGAUGGCAUCUCUCCUA | 1.52 ratio
ACAGGAGCAGUACAGGCUGUUUGAUCUUUGGAGAAAUGAGCUUUGCUUUUUAUAUUUAAAUAGGAUACUUUUAUAUGAUGGGUGCUUUGAGUGUGAAUGCAGCAGUCUGUCCAUUUCAGA | 1.19 ratio
UGGGCAUCCUCUCUGGGGAGCUGCUGGCCGCUUAGCGUUGUUUGAUUUUUGACCUUGACAUAGUAGAUAGGCUUGUGGUUUUUUUAAUUUAAAGAUAUUAAGACUUAAUUCACUAAAAUU | 0.82 ratio
CCAUUGUACUAGUGACAAUUUUCAUAGGGAUGACUGUCCAUAGUGGUAACUAGUCUGUGCUAGCAGAAUCAUUUACUGUGACUUUUUAAUUAUCUGCUUUGUCUGAUACCUGAAACCAAU | 0.425 ratio
UUUGUGUGUACAGGGUAUUCUCUGUACUAGUUUGUUGUGGUUAUAAAACAUUUAGCAAAACAGCCUACAUUUGUAUUUAUUUUCUGUUCCAUACUUCUGUGCCUCAUGUGUUUUCUUUUA | 0.739 ratio

Sample 6
Target: RNA binding protein fox-1 homolog 2, RRM domain, GST-SBP tag (RBFOX2, Homo sapiens, UniProt O43251-10, residues 100-194)
Technique: RNA Bind-n-Seq
Molecule type: RNA
Medium: in vitro
Tested at: 365 nM
Setting: natural RNA segment, single round, ends assumed
Relative to: no-protein control
Direction: higher = stronger binding
Shared flanks, not repeated: GGGAGUUCUACAGUCCGACGAUC … UGGAAUUCUCGGGUGCCAA
Residues (chain): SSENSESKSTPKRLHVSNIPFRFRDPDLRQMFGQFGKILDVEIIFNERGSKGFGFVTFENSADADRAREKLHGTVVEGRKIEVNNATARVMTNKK
Oligonucleotide | RBNS enrichment (R)
CUUGCUUUCCACUGACACUCAGUUCACCCUGCCACUCUGCAAGGUUUGCCUUGGGCAGCUGUGGGGUUUUUCCGAUCUUGCUAGCCCGCAGGCAUCUUGACAUCUUAGUA | 0.323
CGGCUGUUCCACCCACCCCUCUUUAUUCUGGAGCAUAUCAGGGAAAGAAAAGUUGAUGAUAGAUUGCCUUCACCCUCACAGCGCACAAAUAAAGCUACGAUGCCAACUUU | 0.864
CAAAGAGAGCCCUCUGGGCCUCUCCUCCCAUACACACUACACUGCCCCUUCUCCCCCCAUCAAAACGCUCAGAGACGUUGUGAUGAUGCGACUGAGGAUUAUGCAACGUG | 0.431
CCUGUGUGGCCAGCAGAGGAAGCCUUGAGGAUAGAUCUCGGGUGACGUGGGAUUUUCUAAGCCUGAGAGGUGUCCUUCUGCACACCCUUGUAACAAUUAAAAUUGCUUUU | 0.542
AUAGCCCACGUACCCUCGCAGUGUCCAGUAGGGAUCCCAGAGGCACAUAACCAAGAAAGGAUUUUGACUUUGUCACAGUGACUAUUUAAAAUAAUCUAUUCGAAGUCCAA | 0.291
GAGGGACCUCGGCUUCUUGAGGCAAAAGGCACUAGUACUUAAAGUACUUUCUGUGGCGUGACCAAUCUUUACUGUUUUUCUAACUACAGAUGUAUGAACAUCCUUGGAGU | 0.449
CGUCCGUACCCAGCUAACCUCUCUCCCAUGCUGGAUGAAGAAGUUCUUAACUUCCCAAGCUGCAGAAUAGCAACCUUUUAAGCUUUCACACACUUUCCUCUUAAGAUCCG | 0.398
UGCAUGGUGACCCCACAUUGCACUGGUAAACCAUUUGAGUCCCACUCUUCAUCCUGGAAGUGGGAACUGGAGUCCCACCCACAGUGCAUUCAGAAAGCAUGCUGUGUGGG | 5.5
CAUAGGGAGGGCUCUGCAUAGCACCUGCUAUAGCGGUGUCAUGUUGGAUCGCUUUUGUGACUGUUCAUCUGUCCUUGACAGUGGCUGUCAUCUUGACUACUUUGUUGAUU | 0.309
CAGCAGAGCUCAAGAUUGUAGAAACUCAGCAGAAGCUGGUAAAAACAUGGGGAGCCCGGAGGACAGGCUGCUGUCCAGGGCAGAGGCCAUGAAGAAGUGCUUCCGUGGCC | 0.419
AGGGUGGCCUUGAAGAGGCCAAAGGAAUGUCCAUUUGCUGAGUUUCCCUUCCUUAUGUCUCCAGUCUGGUGCCAGGUAGUGGAGUAAAAAAGGAGACAGUUUAUUUUUUU | 0.779
GCGGGCAUCUGUGCGUGCGAGGAGACCCCUUCUCUCGGCCAAGUUUUUUCCCAUAACACCCACAUGGAUUUGUGAAGACGUGCUUCUCAGAAGCAAGGACUCAAAAAGCA | 3.82

Excerpt of the above (sample 1):
Oligonucleotide | E-score
TCCCCACA | 0.311
CGCCCCCG | 0.341
ACCCCAAT | 0.287
CGTTGTAG | 0.254
GGGTAATA | 0.273
CACTCCCA | 0.362
CAACGCCC | 0.331
CCCCACCC | 0.481
